{"data": "Published values gathered from unrelated publications", "note": "Each numbered part is a random draw from the data of one study; scales do not carry over between parts. Positions count from the first letter of the parent shown."}
{"data": "Study 1", "target": "Microphthalmia-associated transcription factor, full length (MITF, Homo sapiens, UniProt O75030-10, residues 1-413)", "technique": "protein-binding microarray", "form": "hairpin DNA", "matrix": "in vitro", "tested at": "not given", "notes": "whole hairpin DNA, median over replicate spots", "baseline": "not given", "reading": "higher = stronger binding"}
{"Oligonucleotide": "GAGGCCTAGCCGGTGCTGCCTCCTGGCAGCACCGGCTAGGCCTCACACTC (5mC at 11 33)", "median fluorescence": "5510 a.u."}
{"Oligonucleotide": "GAGGCCAAGCACGTGCTGCCTCCTGGCAGCACGTGCTTGGCCTCACACTC", "median fluorescence": "24700 a.u."}
{"Oligonucleotide": "CACTTAGCACGTAATTTTGGTCCTCCAAAATTACGTGCTAAGTGACACTC", "median fluorescence": "4440 a.u."}
{"Oligonucleotide": "CACTTAGCAGGTGATTTTGGTCCTCCAAAATCACCTGCTAAGTGACACTC (5mC at 35)", "median fluorescence": "4770 a.u."}
{"Oligonucleotide": "GAGGCCTAGCACGTGCAGCCTCCTGGCTGCACGTGCTAGGCCTCACACTC", "median fluorescence": "20500 a.u."}
{"Oligonucleotide": "CACTCAGCACGTGATTTTGGTCCTCCAAAATCACGTGCTGAGTGACACTC", "median fluorescence": "27500 a.u."}
{"Oligonucleotide": "GAGGCCTAGCACCGGCTGCCTCCTGGCAGCCGGTGCTAGGCCTCACACTC (5mC at 13)", "median fluorescence": "5840 a.u."}
{"Oligonucleotide": "CACTTAACACGTGATTTTGGTCCTCCAAAATCACGTGTTAAGTGACACTC", "median fluorescence": "23900 a.u."}
{"data": "Study 2", "target": "CCND1, cyclin fold, Cln2 fusion (human)", "technique": "yeast growth competition, sequencing", "matrix": "yeast", "notes": "strong parent motif", "baseline": "not given", "reading": "higher = stronger binding", "starting sequence": "viral docking peptide; KGVKRKLFAEDSS; partner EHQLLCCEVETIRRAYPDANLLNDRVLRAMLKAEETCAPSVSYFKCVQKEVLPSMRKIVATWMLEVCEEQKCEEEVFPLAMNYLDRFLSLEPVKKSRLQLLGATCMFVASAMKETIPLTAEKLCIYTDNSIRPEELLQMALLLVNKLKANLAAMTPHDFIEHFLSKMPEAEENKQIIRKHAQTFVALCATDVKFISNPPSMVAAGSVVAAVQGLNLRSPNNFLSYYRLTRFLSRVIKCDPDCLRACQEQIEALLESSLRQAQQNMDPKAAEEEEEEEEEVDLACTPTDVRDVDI"}
{"Substitution": "KGVKRPLFAEDSS [K6P]", "normalised enrichment score": 0.106}
{"Substitution": "KGEKRKLFAEDSS [V3E]", "normalised enrichment score": 0.347}
{"Substitution": "KGVKRKLFAEDNS [S12N]", "normalised enrichment score": 1.66}
{"Substitution": "KGVKRMLFAEDSS [K6M]", "normalised enrichment score": 0.824}
{"Substitution": "KGGKRKLFAEDSS [V3G]", "normalised enrichment score": 0.437}
{"Substitution": "KGVKRELFAEDSS [K6E]", "normalised enrichment score": 1.41}
{"Substitution": "KGVKTKLFAEDSS [R5T]", "normalised enrichment score": 0.28}
{"Substitution": "KGVKRKQFAEDSS [L7Q]", "normalised enrichment score": 0.118}
{"Substitution": "KGVKRKWFAEDSS [L7W]", "normalised enrichment score": -0.498}
{"Substitution": "KGVKRKLFAESSS [D11S]", "normalised enrichment score": 0.888}
{"Substitution": "KGVKRKAFAEDSS [L7A]", "normalised enrichment score": -0.173}
{"Substitution": "KGVKRKLFAYDSS [E10Y]", "normalised enrichment score": 0.143}
{"Substitution": "KGVKSKLFAEDSS [R5S]", "normalised enrichment score": -0.314}
{"Substitution": "KGVKRKLFYEDSS [A9Y]", "normalised enrichment score": 0.972}
{"Substitution": "KGVKGKLFAEDSS [R5G]", "normalised enrichment score": -0.459}
{"Substitution": "KGVKRKLFEEDSS [A9E]", "normalised enrichment score": 1.84}
{"Substitution": "KGVKRKLNAEDSS [F8N]", "normalised enrichment score": -0.00788}
{"Substitution": "KGVKRILFAEDSS [K6I]", "normalised enrichment score": 1.01}
{"Substitution": "KYVKRKLFAEDSS [G2Y]", "normalised enrichment score": 0.703}
{"Substitution": "KGVKHKLFAEDSS [R5H]", "normalised enrichment score": -0.111}
{"Substitution": "KGYKRKLFAEDSS [V3Y]", "normalised enrichment score": 0.0774}
{"Substitution": "KGVDRKLFAEDSS [K4D]", "normalised enrichment score": 0.00898}
{"Substitution": "KNVKRKLFAEDSS [G2N]", "normalised enrichment score": 2.38}
{"Substitution": "KGVKRALFAEDSS [K6A]", "normalised enrichment score": 0.857}
{"Substitution": "KGVKRCLFAEDSS [K6C]", "normalised enrichment score": 0.776}
{"data": "Study 3", "target": "HLA class I histocompatibility antigen, A alpha chain, allele A*80:01 (Homo sapiens, UniProt P04439)", "observed": "peptide-MHC binding", "form": "peptide", "tested at": "concentration not given"}
{"Sequence": "AESICSYWL", "binding": "inactive"}
{"Sequence": "ILRNPGYAL", "binding": "inactive"}
{"Sequence": "IIRVTSELL", "binding": "inactive"}
{"data": "Study 4", "target": "Histone acetyltransferase KAT6A, winged helix 2, GST fusion (KAT6A, Homo sapiens, UniProt Q92794, residues 85-181)", "technique": "protein binding microarray", "form": "double-stranded DNA, one strand shown", "matrix": "in vitro", "tested at": "not given", "notes": "8-mer, flanks averaged, mean of 2 arrays, mostly near background", "baseline": "not given", "reading": "higher = stronger binding", "Residues (chain)": "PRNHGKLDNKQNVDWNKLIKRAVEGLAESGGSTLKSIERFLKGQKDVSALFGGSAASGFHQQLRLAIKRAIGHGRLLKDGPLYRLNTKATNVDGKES"}
{"Oligonucleotide": "GTGTCACA", "E-score": -0.024}
{"Oligonucleotide": "CTACTAGC", "E-score": 0.0762}
{"Oligonucleotide": "CTACTTGA", "E-score": -0.171}
{"Oligonucleotide": "ATAGTGAA", "E-score": 0.0735}
{"Oligonucleotide": "GTCGCAGA", "E-score": 0.179}
{"Oligonucleotide": "GCCGTATA", "E-score": 0.147}
{"Oligonucleotide": "GGACATCA", "E-score": 0.126}
{"Oligonucleotide": "CCTTCCCC", "E-score": 0.0552}
{"data": "Study 5", "target": "Ras GTPase-activating protein-binding protein 1, RRM domain (G3BP1, Homo sapiens, UniProt Q13283)", "technique": "RNA Bind-n-Seq", "form": "RNA", "matrix": "in vitro", "tested at": "1 µM", "notes": "whole 134-nt RNA, ends assumed", "added": "150 mM KCl", "baseline": "input library", "reading": "higher = stronger binding", "sequence of UniProt Q13283 (whole entry, looked up)": "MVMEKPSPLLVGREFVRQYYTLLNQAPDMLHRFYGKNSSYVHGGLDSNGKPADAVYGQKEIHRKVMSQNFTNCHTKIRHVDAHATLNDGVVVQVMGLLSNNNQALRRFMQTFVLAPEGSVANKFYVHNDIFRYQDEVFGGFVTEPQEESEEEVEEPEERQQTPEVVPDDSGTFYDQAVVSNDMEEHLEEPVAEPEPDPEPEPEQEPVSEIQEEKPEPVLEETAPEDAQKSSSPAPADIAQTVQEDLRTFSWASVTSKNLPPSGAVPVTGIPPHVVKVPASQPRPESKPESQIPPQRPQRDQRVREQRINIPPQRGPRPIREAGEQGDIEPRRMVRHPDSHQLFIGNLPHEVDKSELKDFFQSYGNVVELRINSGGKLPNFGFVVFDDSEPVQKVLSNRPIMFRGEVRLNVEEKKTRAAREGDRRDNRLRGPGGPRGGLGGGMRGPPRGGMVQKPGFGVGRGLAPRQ"}
{"Oligonucleotide": "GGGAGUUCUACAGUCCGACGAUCCCUCAAGUCCUGUGCUACACAUCGUAUGUACCGAAUCGGGGUGGGUGGUGGGAAAGUAUUAUGUUACGCCGUUCGGAUCUGCACUUCCAGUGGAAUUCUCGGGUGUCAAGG", "log2 enrichment": 0.0766}
{"Oligonucleotide": "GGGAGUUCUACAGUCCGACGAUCUCCUCAAGUCCUGUGCUACACAUCGUAUGUACCGAAUCGGAGGAAAGGUGGAAAGUAUUAUGUUACGCCGUUCGGAUCUGCACUUCCAGCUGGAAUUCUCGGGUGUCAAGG", "log2 enrichment": -0.203}
{"Oligonucleotide": "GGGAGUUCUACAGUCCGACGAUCGCAGGAAGUAAAAACAAAUGGAAAUGCUUCGGAUAAUGGCAGGGGUGGGGGUUGCUAAGGAAAGGGUGGGAUGGGAGUGGGUAAAGAGUUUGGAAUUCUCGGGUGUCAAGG", "log2 enrichment": 0.981}
{"Oligonucleotide": "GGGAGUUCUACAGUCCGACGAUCUGGGAGGUGGAUUUUGUUUAUUUUUUUAGCUCAUUUCCAGGGGUGGGAAUUUUUUUUUAAUAUCUGUCAUGAAUAAAGUUGUUUUUGAAAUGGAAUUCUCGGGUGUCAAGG", "log2 enrichment": 1.26}
{"Oligonucleotide": "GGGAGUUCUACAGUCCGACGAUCUGGGAGGUGGAUUUUGUUUAUUUUUUUAGCUCAUAUCCAGGGGUGGGAAUUUUUUUUUAAUAUGUGUCAUGAAUAAAGUUGUUUUUGAAAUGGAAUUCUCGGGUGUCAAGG", "log2 enrichment": 1.81}
{"Oligonucleotide": "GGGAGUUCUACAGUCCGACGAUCUCCUGUGCUACACAUCGUAUGUACCGAAUCGGGGUUUUUUUGGGGAGGGGAAAAAGGGGAAAGUAUUAUGUUACGCCGUUCGGAUCUGCAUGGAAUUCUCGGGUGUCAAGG", "log2 enrichment": 0.555}
{"Oligonucleotide": "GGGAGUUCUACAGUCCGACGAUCUCCUGUGCUACACAUCGUAUGUACCGAAUCGGAAAAAAGGAAAAAAGGGGAAAAAAGGGGAAAGUAUUAUGUUACGCCGUUCGGAUCUGCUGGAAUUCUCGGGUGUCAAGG", "log2 enrichment": -0.0374}
{"Oligonucleotide": "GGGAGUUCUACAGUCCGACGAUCCAAGUCCUGUGCUACACAUCGUAUGUACCGAAUCGGGGAAAGGAAAGGGAAAGGGAAAGUAUUAUGUUACGCCGUUCGGAUCUGCACUUCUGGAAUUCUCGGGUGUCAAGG", "log2 enrichment": -0.121}
{"note": "For quick reference, copied from above (study 2):"}
{"Substitution": "KYVKRKLFAEDSS [G2Y]", "normalised enrichment score": 0.703}
{"Substitution": "KGVKHKLFAEDSS [R5H]", "normalised enrichment score": -0.111}
{"Substitution": "KGYKRKLFAEDSS [V3Y]", "normalised enrichment score": 0.0774}
{"Substitution": "KGVDRKLFAEDSS [K4D]", "normalised enrichment score": 0.00898}
{"Substitution": "KNVKRKLFAEDSS [G2N]", "normalised enrichment score": 2.38}
{"Substitution": "KGVKRALFAEDSS [K6A]", "normalised enrichment score": 0.857}
{"Substitution": "KGVKRCLFAEDSS [K6C]", "normalised enrichment score": 0.776}
